Measurements from different studies.
Numbered parts are unrelated; each lists some results of a single study.

Study 1
Target: Ras GTPase-activating protein-binding protein 1, RRM domain (G3BP1, Homo sapiens, UniProt Q13283)
Sequence of UniProt Q13283 (whole entry, looked up): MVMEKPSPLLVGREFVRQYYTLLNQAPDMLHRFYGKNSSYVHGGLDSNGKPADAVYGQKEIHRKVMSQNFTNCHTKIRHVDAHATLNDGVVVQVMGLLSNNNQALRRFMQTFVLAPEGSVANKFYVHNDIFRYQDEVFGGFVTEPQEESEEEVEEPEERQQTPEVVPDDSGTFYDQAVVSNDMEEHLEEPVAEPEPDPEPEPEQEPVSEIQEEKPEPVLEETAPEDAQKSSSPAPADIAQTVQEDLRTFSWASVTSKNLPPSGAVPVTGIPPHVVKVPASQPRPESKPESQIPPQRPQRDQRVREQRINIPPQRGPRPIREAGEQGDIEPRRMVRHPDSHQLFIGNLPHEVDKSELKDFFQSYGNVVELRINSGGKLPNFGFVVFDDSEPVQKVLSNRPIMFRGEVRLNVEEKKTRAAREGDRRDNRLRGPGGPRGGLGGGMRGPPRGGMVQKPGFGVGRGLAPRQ
Method: RNA Bind-n-Seq
Molecule type: RNA
Matrix: in vitro
Concentration: 1 µM
Setting: whole 134-nt RNA, ends assumed
Added: 150 mM KCl
Reference: input library
Direction: higher = stronger binding
All sequences stand within: GGGAGUUCUACAGUCCGACGAUC … UGGAAUUCUCGGGUGUCAAGG
Oligonucleotide	log2 enrichment
AAGUCCUGUGCUACACAUCGUAUGUACCGAAUCGGGAAAAGGGAAAAGGGAAAAGGGAAAGUAUUAUGUUACGCCGUUCGGAUCUGCACU	0.381
AGUCCUGUGCUACACAUCGUAUGUACCGAAUCGGGCCCCCGGCCCCCGGGGCCCCCGGAAAGUAUUAUGUUACGCCGUUCGGAUCUGCAC	-0.711
GUCCUGUGCUACACAUCGUAUGUACCGAAUCGGUUUUUGGGGUUUUUGGGUUUUUGGGAAAGUAUUAUGUUACGCCGUUCGGAUCUGCAC	-0.119
UCCUGUGCUACACAUCGUAUGUACCGAAUCGGGGUUUUUGGGGUUUUUGGGGAAAGGGGAAAGUAUUAUGUUACGCCGUUCGGAUCUGCA	0.993
AGUCCUGUGCUACACAUCGUAUGUACCGAAUCGGGGAGGGGAAAAAGGGGUUUGGGGAAAGUAUUAUGUUACGCCGUUCGGAUCUGCACU	0.94
UCAUUUUUUUCCCUGCCGGAAUUUUAGCAUUGAUAUGAACCAUGGACAAGUAUAUUCUGCUGCCACAAAGACUGUAAAGUGCUUCAUUUC	-0.187
AAGUCCUGUGCUACACAUCGUAUGUACCGAAUCGGGGAAAGGGGAAAGGAAAGGGGAAAGUAUUAUGUUACGCCGUUCGGAUCUGCACUU	0.125
ACCAUGCAGGUGGGCAUCUUUGGGAAGUGGGGCAAGGGGGGGAUAGGGAGGGGGGUAACACUUUGGGAAAAGGUGGUCCCAGGUCGUUUC	-0.627
UGGCCCUGGUGGCAUGCGGGGAGGAAGAGGUGGCCUCAUGGAUCUUGGUGGUCCCGGUGGAAUGUUCAGAGGUGGCCGUGGUGGAGACAG	1.35

Study 2
Target: Histone acetyltransferase KAT6A, winged helix 2, GST fusion (KAT6A, Homo sapiens, UniProt Q92794, residues 85-181)
Method: protein binding microarray
Molecule type: double-stranded DNA, one strand shown
Matrix: in vitro
Concentration: not given
Setting: 8-mer, flanks averaged, mean of 2 arrays, mostly near background
Reference: not given
Direction: higher = stronger binding
Construct (chain): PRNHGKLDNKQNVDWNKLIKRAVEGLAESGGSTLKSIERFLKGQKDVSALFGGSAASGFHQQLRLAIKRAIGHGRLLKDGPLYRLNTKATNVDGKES
Oligonucleotide	E-score
GACCGTAC	-0.239
AAGAGTGT	0.0164
GCACAACA	-0.0715
ACCGAGAC	-0.111
CGGATCCC	0.0916
CAAAGGAG	0.0259
AGGCTCGC	0.119
ACAGAAGG	-0.035
ACAGCGAC	-0.113
TCCGTGAA	0.068
AATCTCCG	-0.0193
AGTATAAT	0.0856
AATTTCGA	-0.033
CTACGATA	-0.112
AAGTAACA	-0.157
ACAACGCT	-0.0823
GGGAGCGA	-0.0572
GCGAGTCC	-0.0315
CTTCTAGA	0.0246
CTTCATTC	-0.08
CATATGGC	-0.0962
AAAGGAAG	-0.00463
ATGAAGAA	0.0287

Study 3
Target: RNA binding protein fox-1 homolog 2, RRM domain, GST-SBP tag (RBFOX2, Homo sapiens, UniProt O43251-10, residues 100-194)
Method: RNA Bind-n-Seq
Molecule type: RNA
Matrix: in vitro
Concentration: 365 nM
Setting: natural RNA segment, single round, ends assumed
Reference: no-protein control
Direction: higher = stronger binding
All sequences stand within: GGGAGUUCUACAGUCCGACGAUC … UGGAAUUCUCGGGUGCCAA
Target sequence (chain): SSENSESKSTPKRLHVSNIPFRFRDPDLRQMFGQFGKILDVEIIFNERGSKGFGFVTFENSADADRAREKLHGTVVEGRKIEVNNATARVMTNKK
Oligonucleotide	RBNS enrichment (R)
CAUUCCAAAGUGCAUCAGAACUGUCAUUCCCUUCUAAUAUCUUCUCAGGAGUAAUACAAAUCAGGUAUUUCAUCAUCAUUUGGUAAUAUGAAAACUCCAGUGAACUCCCA	0.496
UUUUUGGUGCUGUAUGUGAUGAGAGACUCAUUCAUAGUGGAUCAAUGAAUAAUCUCUUGUAGGUAACUUUAUUUGAAAAUAAAGAUUUCCUUUUACUUCCAGAAUAACCA	0.471
AUUUGUAUUAUGCUGGAAUUUUUUGGGCUUUCAGAUUUCUCUUUUUAACCACAUUUCUGAAUGUAUAAAAAUACCAAUUAUUUUCCUACAGCCCUUUGUACUUCAAAAUA	0.968
CUCAGAUCACUAAAAGGAGCAUCAGUGGCCCAAUUCCUCUUACUUUGGGACACACUGUCCACACUCCACCAAGAGCUACACAGAUUCCCACAUAAAGAUAGUGCCCUAAG	0.284
UCUAGAUUUCUGGAGUUAUGUUCCCCACAUCCAAAGCCAGUGUCUACAUACAGCUGCCAUGCCCUUUCUGAACAAAGGCUGGAGUUGUCCAAUUGCAGUUCUUCUUCGCA	0.686
AGAGUCUAAGAAACACAGCAUGUGAAGAACAUUAGAUUUAUACAUUCCAGAAUCUCUGCUCUCAGAGUAGCUAAGAGAUUCGGUACAGAAGACGUUCUAUGGAGAAGCAC	3.77
GUCUUUGUGUGGCAAAGAUGUUCCCUUGUAGGCCCCUUUCAGGUAACCGUCUUCACAAUGUAUUUUCAUCACAGUUUAAGGAGCAUCAGCCGCUUCUCAAGUGGGUAGGG	0.332
GGAUUAUAUUUUUGGGUUUUGUAGAAUAUUGCAAAUUAACCACACAAAAAAUGUUUAAUUUAUGCAACAAGCAUGUUUGUGCAAAUUUCAUGGGACUUUAAAAAGAAUAA	12.1

Study 4
Target: PABPC1L2, full length, GST fusion (mouse, UniProt A0ABA7IW68)
Method: RNAcompete
Molecule type: RNA
Matrix: in vitro
Concentration: 20 nM
Setting: 7-mer, probes averaged, single round
Reference: mean of 7-mers
Direction: higher = stronger binding
Residues (chain): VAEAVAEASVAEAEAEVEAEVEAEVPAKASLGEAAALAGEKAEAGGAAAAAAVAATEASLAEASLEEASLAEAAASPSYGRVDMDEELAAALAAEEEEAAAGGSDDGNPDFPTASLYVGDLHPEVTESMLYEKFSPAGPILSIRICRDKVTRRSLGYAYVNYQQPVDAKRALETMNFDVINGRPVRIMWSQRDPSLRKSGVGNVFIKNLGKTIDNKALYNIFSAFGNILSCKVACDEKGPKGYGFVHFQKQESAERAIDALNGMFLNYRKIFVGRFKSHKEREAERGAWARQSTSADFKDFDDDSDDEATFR
Oligonucleotide	7-mer Z-score
UCGUCCA	-0.391
CCAAGAG	-0.0663
GGGGUCU	0.206
CUCAAGC	-0.278
GUCCUGG	-0.184
CGCUUAU	-0.325
AAGAUCU	0.095
GCCGAUG	-0.13
GUUCCGU	-0.405
AGACCGG	-0.28
GCAUUCC	-0.309
UAGAUGC	-0.133
CCGAGCG	-0.0808
CGCAUAC	-0.237
GAUGUGU	-0.322
CCAAUUC	-0.336
AAUGAAU	0.0805
GCUCCGA	-0.128
AUCUUUU	-0.0228
GGCGGCA	0.372
UUUGAGG	-0.151
AAAAGGA	3.54
GGCCCUG	-0.264
UCGGUAU	-0.251
GGUCUAG	-0.168

Excerpt of the above (study 1):
Oligonucleotide	log2 enrichment
UCCUGUGCUACACAUCGUAUGUACCGAAUCGGGGUUUUUGGGGUUUUUGGGGAAAGGGGAAAGUAUUAUGUUACGCCGUUCGGAUCUGCA	0.993
AAGUCCUGUGCUACACAUCGUAUGUACCGAAUCGGGGAAAGGGGAAAGGAAAGGGGAAAGUAUUAUGUUACGCCGUUCGGAUCUGCACUU	0.125
AGUCCUGUGCUACACAUCGUAUGUACCGAAUCGGGGAGGGGAAAAAGGGGUUUGGGGAAAGUAUUAUGUUACGCCGUUCGGAUCUGCACU	0.94
UCAUUUUUUUCCCUGCCGGAAUUUUAGCAUUGAUAUGAACCAUGGACAAGUAUAUUCUGCUGCCACAAAGACUGUAAAGUGCUUCAUUUC	-0.187
GUCCUGUGCUACACAUCGUAUGUACCGAAUCGGUUUUUGGGGUUUUUGGGUUUUUGGGAAAGUAUUAUGUUACGCCGUUCGGAUCUGCAC	-0.119
AAGUCCUGUGCUACACAUCGUAUGUACCGAAUCGGGAAAAGGGAAAAGGGAAAAGGGAAAGUAUUAUGUUACGCCGUUCGGAUCUGCACU	0.381
AGUCCUGUGCUACACAUCGUAUGUACCGAAUCGGGCCCCCGGCCCCCGGGGCCCCCGGAAAGUAUUAUGUUACGCCGUUCGGAUCUGCAC	-0.711
UGGCCCUGGUGGCAUGCGGGGAGGAAGAGGUGGCCUCAUGGAUCUUGGUGGUCCCGGUGGAAUGUUCAGAGGUGGCCGUGGUGGAGACAG	1.35
ACCAUGCAGGUGGGCAUCUUUGGGAAGUGGGGCAAGGGGGGGAUAGGGAGGGGGGUAACACUUUGGGAAAAGGUGGUCCCAGGUCGUUUC	-0.627
